Published values gathered from unrelated publications.
Parts stem from different laboratories: compare values within a part only. Positions count from the first letter of the parent shown.

Sample 1 — technique: DHFR PCA, deep sequencing; matrix: yeast; together with: (+)-ABA 0.0091 µM; relative to: wild-type fitted maximum; direction: higher = stronger binding
Target: ABI1, truncated, D143A, DHFR fusion (Arabidopsis thaliana)
Notes: methotrexate growth selection, single substitutions
Parent: PYL1, truncated, DHFR fusion (Arabidopsis thaliana); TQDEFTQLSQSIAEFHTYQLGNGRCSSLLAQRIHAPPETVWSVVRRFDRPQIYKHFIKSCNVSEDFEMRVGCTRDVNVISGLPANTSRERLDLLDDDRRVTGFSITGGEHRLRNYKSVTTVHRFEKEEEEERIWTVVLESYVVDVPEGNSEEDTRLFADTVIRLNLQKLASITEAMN
Variant	relative binding score [%]
T173H	-11.3
L112W	6.22
S140F	1.31
A170V	-0.646
L82A	5.82
S9G	20.6
P50F	-11.7
F56E	4.18
R163T	15.6
H34P	2.3
V78L	74.3
F47V	-4.68
G148Q	-6.6
T101L	73.9
K168F	1.71
R32N	0.763
V70R	1.77
A158C	74.7
G107T	1.63
T6V	34.8

Sample 2 — technique: RNA Bind-n-Seq; molecule type: RNA; matrix: in vitro; concentration: 365 nM; relative to: no-protein control; direction: higher = stronger binding
Target: RNA binding protein fox-1 homolog 2, RRM domain, GST-SBP tag (RBFOX2, Homo sapiens, UniProt O43251-10, residues 100-194)
Notes: natural RNA segment, single round, ends assumed
Constant ends, left off below: GGGAGUUCUACAGUCCGACGAUC … UGGAAUUCUCGGGUGCCAA
Target sequence (chain): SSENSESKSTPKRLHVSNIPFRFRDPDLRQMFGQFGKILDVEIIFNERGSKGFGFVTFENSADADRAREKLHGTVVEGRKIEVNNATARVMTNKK
Oligonucleotide	RBNS enrichment (R)
UCCUUUUGGAGUUUCUUCUCCACAUUAUCUUUGUUCCUGGGGAAUAAAAACUACCAUUGGACCUAGAUUUGGGCUCCUGUACUGUCUUCACCUGCUCUUGUCCACCCUAC	1.03
GGAGUAAUGUUAUAAUAAUAUUUUUAUUAGAAUGUUCUGAUUAUAAAAAAUAAAACUUGUUUUCUUUAAAGAAAAAGGUGGUUUGAGGUUUUUCUCAAUGGCAAGGUGGU	0.564
GUGAAUGCUAUCCUCAAGGCCCUGCCCCAGUGAGCCCCCCUGGGCGCCUCAGUGGGCAUCCUGGCCUCGGCUCCUUCUGCCUGUGUGAGCAUCUGUGCACCCACUCUUCA	0.851
GCCCUCUGGAGUCCCCUACCAUGACUGAAGGCGCCAGAGACUGGCGGUGUCUUAAGACUCCGGGCACCGCCACGCGCUGUCAAGCAACACUCUGCGGACCUGCCGGCGUA	0.394
AUGAAUAAUGCCUGACAUUCAACAAUUGUGGAAAUAUGUUGGUAUGUUGCUGAACAUACAUACACCUCCGAAAUGCCAGUUCUGCAUUCUACACAUAUGCUUUCUGGCAG	1.85
CCGCUGGGUCUGUGAGACAAAGUUGGAUAAGGCUAAUAGGAACCUUCCUUCCCCUCAUUUAUAUCCUUAAUUCCUUGAGCUGCUGAGGUUUAGAACUGGUAGAGCCUACC	0.371
AGAGUGACUGGGUGUGCCAAAAUAUGCCCAGGGUCCUGCCCUCAGCACUAGAUUUAAUGGGGCCAAGAGGGUCCAAACCCCUUGCUAACAUACCACUUCUUUGUUUAACU	0.269
CCCCAUCAAAAAAAAAAAUGGAUACAUGGUUAAAGGAUAGAAGGGCAAUAUUUUAUCAUAUGUUCUAAAAGAGAAGGAAGAGAAAAUACUACUUUCUCAAAAUGGAAGCC	0.5
UCAAGAACAUGUCAAAGGAGUGAGCAGGGCAGUAGCCCUGUAGGUUGCAUGGGUGUGUGUCGCUGUGCAGGCCUGCCUGGGCUACCAUCUCCACUCCCCAUGUCUCUGAG	0.826
UCUACAAUUAAAAGAAUGUUUUGAUAAUCCAGGGGCUGGUUAGUGAGCCCGCUGGCCUCACUGGGGUGUCAGGGCUGGGCCCAGGGAUUGCUAUUUUCACGUAGGCCCUU	7.51
CUUAAGGACAGAUGCUGAGAUUGCUUUUUGUAAACUCGUUUAAGCGAGUGAGUGAGUUGAGUUACCUGAACUCUGUAGCACUGGUUGUUCAUAGUGAUGAAGGACAGCAC	0.88
UGCAGACUCUGGGACCUGACAAAACAGUCAGAGCCUGAGUGCACUGCAGCCUGAACUCCCUUGAGCAGCGCUAUAAGGGACUUUGCACUUUAAAAAGGGGAUGCCUGUCA	0.403

Sample 3 — target: FOSL2, bZIP domain (human); technique: DHFR protein complementation; matrix: yeast; relative to: wild-type JUN-FOS pair; direction: higher = stronger binding
Notes: single substitutions, most at no-binding floor
Parent: JUN, bZIP domain (human); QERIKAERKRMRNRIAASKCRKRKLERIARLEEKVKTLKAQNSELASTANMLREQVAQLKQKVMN; partner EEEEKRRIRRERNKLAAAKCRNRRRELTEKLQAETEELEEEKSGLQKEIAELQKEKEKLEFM
Variant	binding fitness
V56N	-0.542 natural log
K39R	0.148 natural log
K39E	-0.388 natural log
A46W	-0.0998 natural log
S43R	0.149 natural log
A29H	0.0375 natural log
L31N	-0.592 natural log
L45Y	-0.189 natural log
V35L	-0.0705 natural log
Q41W	-0.859 natural log
T37I	0.0102 natural log
E32V	-0.0122 natural log
T48D	-0.229 natural log
I28C	-0.108 natural log
L31M	0.113 natural log
K39M	-0.343 natural log
Q41G	-0.0397 natural log
K36N	0.0991 natural log
S43I	0.0622 natural log
K36M	0.157 natural log
L31V	-0.447 natural log
L31A	-0.049 natural log
E44M	0.0543 natural log
S47F	0.09 natural log
E32Y	-0.151 natural log

Sample 4 — target: CCND3, cyclin fold, Cln2 fusion (human); technique: yeast growth competition, sequencing; matrix: yeast; notes: weak parent motif; relative to: not given; direction: higher = stronger binding
Parent: CDC6 docking peptide (human); TLKGRRLVFDNQL; partner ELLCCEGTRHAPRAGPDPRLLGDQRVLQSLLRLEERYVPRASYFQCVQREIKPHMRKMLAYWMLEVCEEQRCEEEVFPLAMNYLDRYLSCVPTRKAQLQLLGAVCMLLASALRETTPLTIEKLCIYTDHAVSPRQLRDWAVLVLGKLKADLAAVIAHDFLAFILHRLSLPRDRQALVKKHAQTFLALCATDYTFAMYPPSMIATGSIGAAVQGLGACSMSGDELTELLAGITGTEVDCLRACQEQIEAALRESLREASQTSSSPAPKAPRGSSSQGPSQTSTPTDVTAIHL
Variant	normalised enrichment score
TYKGRRLVFDNQL [L2Y]	0.0532
TLKGRRLVLDNQL [F9L]	0.298
TLKGRRLVFDNEL [Q12E]	0.0502
TLKGRRLVFDNQM [L13M]	0.106
TLKGRRWVFDNQL [L7W]	0.179
TLKGARAVFDNQL [R5A L7A]	0.0394
TLKGIRLVFDNQL [R5I]	0.0373
TLKGRRLVFDCQL [N11C]	0.213
TLKGRRLVFDNNL [Q12N]	0.0984
TLKGRRLVFKNQL [D10K]	0.0785
TLKGRRLVFDNQA [L13A]	0.139
TLKGRRLVFDNSL [Q12S]	0.0833
TLKGNRLVFDNQL [R5N]	0.0167
TVKGRRLVFDNQL [L2V]	0.117
TLKWRRLVFDNQL [G4W]	0.0863
TLKGVRLVFDNQL [R5V]	0.177
TLKGRRLVFINQL [D10I]	0.178
TLKGRRLVHDNQL [F9H]	0.0888
TLGGRRLVFDNQL [K3G]	0.0909
TLKGFRLVFDNQL [R5F]	0.0997
ALKGRRLVFDNQL [T1A]	0.0878
TLKGRWLVFDNQL [R6W]	-0.0285
TLKGRRLVFRNQL [D10R]	0.112
TLKGRRLVNDNQL [F9N]	0.0918
TLKGRRLRFDNQL [V8R]	0.147

Sample 5 — technique: aptamer microarray, sandwich; molecule type: DNA with 2'F-ANA; matrix: in vitro; concentration: 200 nM; together with: Cy3 exosite-II aptamer, 400 nM; direction: higher = stronger binding; oligonucleotide: GGTTGGTGTGGTTGG
Target: Prothrombin, mature alpha-thrombin (F2, Homo sapiens, UniProt P00734)
Notes: whole 15-mer aptamer, many near background
Modification	mean fluorescence intensity [a.u.]
2'F-ANA at 3 4 5 7 10 13 15	49.3
2'F-ANA at 1 4 6 8 10 11	52
2'F-ANA at 2 3 4 5 7 10 11 14 15	50
2'F-ANA at 1 2 3 5 8 13 14 15	48.5
2'F-ANA at 1 2 5 11 13	47
2'F-ANA at 1 3 5 6 8 10 13 14 15	51.2
2'F-ANA at 1 5 6 9 10 12 14	45.4
2'F-ANA at 2 3 4 5 6 7 8 9 13 14	49.7
2'F-ANA at 6 7 10 11 12	205
2'F-ANA at 1 5 7 8 9 10 11 13 15	58.3
2'F-ANA at 3 4 5 7 8 9 10 12 13 15	54.7
2'F-ANA at 6 7 8 9 11 12 13 14 15	183
2'F-ANA at 2 3 6 8 9 10 11 12 13 14 15	191
2'F-ANA at 2 3 4 6 7 9	591
2'F-ANA at 1 3 4 5 7 11 12 13	89.4
2'F-ANA at 1 7 8 9 10 11 14	50.8
2'F-ANA at 1 4 5 6 8 9 11 12 14 15	82.9
2'F-ANA at 1 2 4 5 8 12	121
2'F-ANA at 2 5 6 7 8 9 12 13	117
2'F-ANA at 1 4 5 6 7 8 10 11 12 13 14 15	238
2'F-ANA at 2 5 6 7 11 12 14	83.3
2'F-ANA at 2 4 5 7 11 13 14 15	45

Mixed results
Molecule	target	assay	system	conditions	scale	measurement	value
PhoQ, residues 284 288 289 292 302 303 SSTLLI	PhoP, residues 12 14 15 18 19 LHHVQ (Escherichia coli, UniProt P23836)	Sort-seq, refers to: YFP reporter	E. coli	PhoQ-PhoP variant library, together with: 10 µM Mg2+	relative to: high Mg2+ state, higher = stronger signaling	fold induction	0.153

For quick reference, copied from above (sample 4):
Variant	normalised enrichment score
TLKGRRLVFINQL [D10I]	0.178
TLKGRRLVNDNQL [F9N]	0.0918
TYKGRRLVFDNQL [L2Y]	0.0532
TLKGRRLVHDNQL [F9H]	0.0888
TVKGRRLVFDNQL [L2V]	0.117
TLKGRRLVLDNQL [F9L]	0.298
